Measured values gathered from unrelated publications.
Numbers after ± are the reported error.
IDE: Insulin-degrading enzyme (IDE, Homo sapiens, UniProt P14735)
Cereblon/Ikaros: Cereblon/Ikaros (Homo sapiens, UniProt Q13422+Q96SW2)
UniProt Q13422, sequence (whole entry, looked up): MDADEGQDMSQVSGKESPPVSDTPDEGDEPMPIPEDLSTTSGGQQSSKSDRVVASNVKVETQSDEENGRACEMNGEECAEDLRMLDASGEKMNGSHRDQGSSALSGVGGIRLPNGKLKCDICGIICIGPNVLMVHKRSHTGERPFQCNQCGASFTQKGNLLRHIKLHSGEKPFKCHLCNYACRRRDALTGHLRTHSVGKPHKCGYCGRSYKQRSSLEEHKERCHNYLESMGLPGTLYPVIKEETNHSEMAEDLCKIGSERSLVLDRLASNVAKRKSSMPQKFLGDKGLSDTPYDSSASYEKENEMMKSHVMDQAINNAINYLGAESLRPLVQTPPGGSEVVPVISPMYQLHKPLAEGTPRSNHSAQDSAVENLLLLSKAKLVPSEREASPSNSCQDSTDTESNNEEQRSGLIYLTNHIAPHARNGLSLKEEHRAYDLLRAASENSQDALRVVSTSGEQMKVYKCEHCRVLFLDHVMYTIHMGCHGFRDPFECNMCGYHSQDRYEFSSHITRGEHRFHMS
UniProt Q96SW2, sequence (whole entry, looked up): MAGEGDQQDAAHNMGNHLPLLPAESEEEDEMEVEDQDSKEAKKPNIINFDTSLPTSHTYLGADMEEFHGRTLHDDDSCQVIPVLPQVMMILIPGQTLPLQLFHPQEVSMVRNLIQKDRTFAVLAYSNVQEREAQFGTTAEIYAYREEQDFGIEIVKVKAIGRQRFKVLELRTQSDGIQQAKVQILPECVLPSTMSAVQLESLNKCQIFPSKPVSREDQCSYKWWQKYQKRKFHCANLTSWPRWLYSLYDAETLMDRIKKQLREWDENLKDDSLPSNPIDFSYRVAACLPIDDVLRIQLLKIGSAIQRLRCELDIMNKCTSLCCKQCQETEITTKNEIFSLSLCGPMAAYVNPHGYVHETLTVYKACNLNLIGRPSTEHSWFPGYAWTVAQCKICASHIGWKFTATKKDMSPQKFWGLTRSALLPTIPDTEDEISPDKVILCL
USP33 ZnF-UBD domain: Ubiquitin carboxyl-terminal hydrolase 33, ZnF-UBD domain (USP33, Homo sapiens, UniProt Q8TEY7)
UniProt Q8TEY7, sequence (whole entry, looked up): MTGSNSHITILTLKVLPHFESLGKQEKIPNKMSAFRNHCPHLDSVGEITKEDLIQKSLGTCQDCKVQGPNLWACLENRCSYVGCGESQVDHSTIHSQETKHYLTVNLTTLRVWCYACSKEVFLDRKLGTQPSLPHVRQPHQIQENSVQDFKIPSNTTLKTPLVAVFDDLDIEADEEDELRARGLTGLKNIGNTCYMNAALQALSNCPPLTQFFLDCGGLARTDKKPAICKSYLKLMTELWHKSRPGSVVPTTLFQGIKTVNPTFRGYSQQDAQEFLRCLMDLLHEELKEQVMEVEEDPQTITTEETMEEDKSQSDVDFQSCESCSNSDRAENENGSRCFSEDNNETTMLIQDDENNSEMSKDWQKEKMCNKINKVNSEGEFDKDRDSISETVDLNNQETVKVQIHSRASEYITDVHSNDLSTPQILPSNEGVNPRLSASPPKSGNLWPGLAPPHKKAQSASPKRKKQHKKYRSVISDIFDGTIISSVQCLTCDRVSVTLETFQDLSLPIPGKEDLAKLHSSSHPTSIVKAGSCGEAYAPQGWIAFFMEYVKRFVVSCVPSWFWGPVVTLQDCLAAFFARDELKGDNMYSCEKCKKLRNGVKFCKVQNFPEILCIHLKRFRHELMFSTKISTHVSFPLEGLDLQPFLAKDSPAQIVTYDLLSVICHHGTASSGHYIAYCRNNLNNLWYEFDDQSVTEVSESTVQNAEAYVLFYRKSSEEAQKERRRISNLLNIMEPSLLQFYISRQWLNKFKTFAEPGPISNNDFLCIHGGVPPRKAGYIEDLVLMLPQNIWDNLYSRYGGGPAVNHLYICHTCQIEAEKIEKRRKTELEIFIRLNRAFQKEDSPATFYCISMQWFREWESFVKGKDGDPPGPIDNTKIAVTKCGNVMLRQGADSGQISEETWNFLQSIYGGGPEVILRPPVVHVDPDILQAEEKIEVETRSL

O=C(NC1CCCC1)N1CC(=O)N2[C@H](CO)[C@@H](c3ccc(-c4cccnc4)cc3)[C@@H]2C1  EC50 (IDE; enzyme activity, inhibitor, fluorogenic kinetic; together with: Mca-RPPGFSAFK(Dnp)-OH substrate): 14 µM
CCC(C)(NCCc1ccc(C)cc1)c1cccc(NC2=CC(=O)N(C3CCC(=O)NC3=O)C2=O)c1 (stereo not shown)  DC50 (Cereblon/Ikaros; degrader, HiBiT luminescence, item: endogenous HiBiT-tagged protein): 0.06 ± 0.011 µM
Cc1cccc(-c2ccc([C@H]3[C@@H](CO)N4CCCCN(C(=O)c5ccncc5)C[C@H]34)cc2)c1  EC50 (IDE; enzyme activity, inhibitor, fluorogenic kinetic; together with: Mca-RPPGFSAFK(Dnp)-OH substrate): 3 µM
NS(=O)(=O)c1nnc(NC(=O)CCC2CCCCO2)s1 (stereo not shown)  Ki (Enterococcus faecium γ-carbonic anhydrase; CO2 hydration, inhibitor, stopped-flow kinetics): 0.181 µM
CCCCCCCc1c(C)[nH]c2cc(OC)ccc2c1=O  IC50 (Plasmodium yoelii; 17XL; 384-well): 0.057 ± 0.001 µM
CC(C)(NCCCc1ccc(C(F)(F)F)c(Cl)c1)c1cccc(NC2=CC(=O)N(C3CCC(=O)NC3=O)C2=O)c1 (stereo not shown)  DC50 (Cereblon/Ikaros; degrader): 0.1 µM
O=C(O)Cn1cnc2ccccc2c1=O  Kd (USP33 ZnF-UBD domain): > 1000 µM
Cn1nc(Nc2ccc3c(c2)CN(C2CCC(=O)NC2=O)C3=O)c2ccccc21 (stereo not shown)  DC50 (Cereblon/Ikaros; degrader, live-cell HiBiT kinetic; Jurkat Ikaros-HiBiT LgBiT): > 10 µM
Cc1ccccc1-c1ccc([C@H]2[C@H](CO)N3C(=O)CN(C(=O)c4ccc(F)cc4)C[C@@H]23)cc1  EC50 (IDE; enzyme activity, inhibitor, fluorogenic kinetic; together with: Mca-RPPGFSAFK(Dnp)-OH substrate): 3 µM
NS(=O)(=O)c1nnc(NC(=O)C2CC23CCCCC3)s1 (stereo not shown)  Ki (Enterococcus faecium γ-carbonic anhydrase; CO2 hydration, inhibitor, stopped-flow kinetics): 0.222 µM
CCC(C)(NCCc1ccc(OC)c(Cl)c1)c1cccc(NC2=CC(=O)N(C3CCC(=O)NC3=O)C2=O)c1 (stereo not shown)  DC50 (Cereblon/Ikaros; degrader, HiBiT; Jurkat; 5 h): 0.02 ± 0.002 µM
O=C1CCC(N2Cc3cc(Nc4noc5cc(F)ccc45)ccc3C2=O)C(=O)N1 (stereo not shown)  DC50 (Cereblon/Ikaros; degrader, live-cell HiBiT kinetic; Jurkat Ikaros-HiBiT LgBiT): > 10 µM
Cc1ccccc1-c1ccc([C@H]2[C@@H](CO)N3CCCCN(C(=O)Nc4ccc(F)cc4)C[C@@H]23)cc1  EC50 (IDE; enzyme activity, inhibitor, fluorogenic kinetic; together with: Mca-RPPGFSAFK(Dnp)-OH substrate): 3 µM
c1ccc2c(Cc3c[nH]c4ccccc34)c[nH]c2c1  viability (HBL-1; 0.5 µM, 120 h): 130%
Cc1ccccc1CCC(=O)Nc1nnc(S(N)(=O)=O)s1  Ki (Enterococcus faecium γ-carbonic anhydrase; CO2 hydration, inhibitor, stopped-flow kinetics): 0.0584 µM
O=C(O)CCOc1ccccc1  Kd (USP33 ZnF-UBD domain): 724 µM
Cc1cccc(-c2ccc([C@@H]3[C@@H](CO)N4CCCCN(C(=O)NC(C)C)C[C@@H]34)cc2)c1  EC50 (IDE; enzyme activity, inhibitor, fluorogenic kinetic; together with: Mca-RPPGFSAFK(Dnp)-OH substrate): 6.2 µM
Nc1nc(OCc2cc(Br)cs2)c2[nH]cnc2n1  viability (HBL-1; 0.5 µM, 120 h): 113%
NC(=O)[C@H]1CCCN1C(=O)CCC(=O)O  Kd (USP33 ZnF-UBD domain): > 1000 µM
CC(C)[C@H](NC(=O)[C@H](Cc1ccc(O)cc1)NC(=O)[C@H](Cc1ccc(O)cc1)NC(=O)[C@@H]1CCCN1C(=O)[C@H](CCC(=O)O)NC(=O)[C@H](CCC(=O)O)NC(=O)[C@H](Cc1c[nH]c2ccccc12)NC(=O)[C@@H]1CCCN1C(=O)[C@@H](NC(=O)[C@H](CCC(N)=O)NC(=O)c1ccc2c(c1)C(=O)OC21c2ccc(O)cc2Oc2cc(O)ccc21)C(C)C)C(=O)N[C@H](C(=O)N[C@@H](CCCCN)C(=O)N[C@@H](CCCCN)C(=O)N[C@@H](CO)C(=O)N[C@@H](CO)C(=O)NCC(=O)NCC(N)=O)C(C)C  plasma concentration (human, plasma; intravenous infusion, 500 mg): not detected
Cc1cccc(-c2ccc([C@H]3[C@H](CO)N4C(=O)CN(C(=O)NC5CCCCC5)C[C@@H]34)cc2)c1  EC50 (IDE; enzyme activity, inhibitor, fluorogenic kinetic; together with: Mca-RPPGFSAFK(Dnp)-OH substrate): 3.2 µM
NS(=O)(=O)c1nnc(NC(=O)C2CCC3(CCCCC3)CC2)s1  Ki (Enterococcus faecium γ-carbonic anhydrase; CO2 hydration, inhibitor, stopped-flow kinetics): 0.327 µM

Excerpt of the above:
O=C(O)CCOc1ccccc1  Kd (USP33 ZnF-UBD domain): 724 µM
Cc1cccc(-c2ccc([C@@H]3[C@@H](CO)N4CCCCN(C(=O)NC(C)C)C[C@@H]34)cc2)c1  EC50 (IDE; enzyme activity, inhibitor, fluorogenic kinetic; together with: Mca-RPPGFSAFK(Dnp)-OH substrate): 6.2 µM
Nc1nc(OCc2cc(Br)cs2)c2[nH]cnc2n1  viability (HBL-1; 0.5 µM, 120 h): 113%
